# Assay results pooled from the literature.
# Parts stem from different laboratories: compare values within a part only. Positions count from the first letter of the parent shown.

# Sample 1 — method: RNA Bind-n-Seq; molecule type: RNA; matrix: in vitro; concentration: 365 nM; reference: no-protein control; reading: higher = stronger binding
# Target: RNA binding protein fox-1 homolog 2, RRM domain, GST-SBP tag (RBFOX2, Homo sapiens, UniProt O43251-10, residues 100-194)
# Setting: natural RNA segment, single round, ends assumed
# All sequences stand within: GGGAGUUCUACAGUCCGACGAUC … UGGAAUUCUCGGGUGCCAA
# Residues (chain): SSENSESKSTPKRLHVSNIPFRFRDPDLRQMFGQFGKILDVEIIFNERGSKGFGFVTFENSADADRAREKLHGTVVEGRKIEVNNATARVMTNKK
Oligonucleotide,RBNS enrichment (R)
AGAGCAGACUUUCAGCAGAGACUGUCCAGUGAGUCAUUGAAGACUUGUCAGACCAUCAAUCUCUUGGGGUGAUUAAUCAAAUUACCCACCCAAGGCUUCUAGAAGGAGCU,0.249
CUAACCAAUUUUUACCUUCUGCCUAGAAUGAUGUACACAUAGGAGAGAAAGCUAUCAUGUUCCCGAAGUGCCUUGUUUUCUCUGAUAGAAAUAUAUUUAUAAGGACCUAU,0.629
UGAUAGAACAAGAGCCCAGGCUUCCUGUUUCCAAGUCACCUGUGUUUCCUGGGACCAAAUAAUGAGCACCUGCUGGAGUCUGGGCAGAGCAGCCUGGCUCCCUUCUACCC,0.239
UCCACUCACAUUGCAGAACAAUUCCGAAAAUGGCAAACUACUACUACUACUGUUCAGUUUUUUAAAAGUUUUGAAAUGCUGCACUUACAUUUAAAAAAACAACAACAACA,1.23
GCUACCUCCGAUGACAGAAACGUGCUUUUACUGUAGGUAAAACCAUAAGAAAAGAAAAUAAUCUCAAUUAUUUUCAGAGCUAAAGUUUAUAUUGAUCUUACCAAAUCAAC,0.651
AGAACAAAGCUUAAGCUGCCUUUGUUAUUUUUUGAAAUUGAAAUAAAGUUUACUAAUUUUGACCAAAGUCUGUAUGUGUACUGACUGCUUAAUUGAGGCUCAGAGAGGCA,1.63
UUUAUGUUUCCAUGCCAGAGUUUGUGUGGGCGGGCGCAUGUGCACCACAGAGUGCACUCGAGGGGACUUUCAGUCACAGGAUUUCAUAAUUGUCAUUGUCACACUUUCAA,6.98
CCUUGUUUUUCACAUUGGGAACCCUAACAUUACCAGGGAUGCUACUUACCACAAUUUGUAACCCUGAAUCUCUCCUGUGCUCUGGUGUUCAGAAAGCUGAGACAGCUGGG,0.271
GGCUCCUUAUUGCUGCUUAGGCCUAGAAAGUUUAAGUAUGUGGAAGAGGAGAGUGAGUUGUAAGUUAGAUAAGGUGAAGGGAAUGGAGGGAAACAGGCAGCCUAGUGGGG,1.27
CAUUUCCGUUUGCAGUUCUACUAAAGACACUCUGAGAAAUAUUCCGAGUUUCGUAUUAACCUUUCCUGUCCAUGUAACAACUUCAUGACCAUUACUGCAUUGUCAAAUUC,0.297
CAGGCCAGGCUGAGGGUGGGGCCCUCUGGGACCUAGUCCUCUAAGCUGUCUUUGUUAGAUACUGCUGAGUGAAAGGUGGACCGAGAAGGCUCUUGUGAAGCUCCAGGUAG,0.297

# Sample 2 — target: CCNE2, cyclin fold, Cln2 fusion (human); method: yeast growth competition, sequencing; matrix: yeast; setting: weak parent motif; reference: not given; reading: higher = stronger binding
# Starting sequence: CDC6 docking peptide (human); TLKGRRLVFDNQL
Change,normalised enrichment score
F9S,-0.137
F9L,0.0724
R6D,-0.282
G4F,-0.307
Q12D,0.614
G4D,0.428
K3P,0.483
T1H,0.774

# Sample 3 — method: RNA Bind-n-Seq; molecule type: RNA; matrix: in vitro; concentration: 1 µM; setting: whole 134-nt RNA, ends assumed; with: 150 mM KCl; reference: input library; reading: higher = stronger binding
# Target: Ras GTPase-activating protein-binding protein 1, RRM domain (G3BP1, Homo sapiens, UniProt Q13283)
# Sequence of UniProt Q13283 (whole entry, looked up): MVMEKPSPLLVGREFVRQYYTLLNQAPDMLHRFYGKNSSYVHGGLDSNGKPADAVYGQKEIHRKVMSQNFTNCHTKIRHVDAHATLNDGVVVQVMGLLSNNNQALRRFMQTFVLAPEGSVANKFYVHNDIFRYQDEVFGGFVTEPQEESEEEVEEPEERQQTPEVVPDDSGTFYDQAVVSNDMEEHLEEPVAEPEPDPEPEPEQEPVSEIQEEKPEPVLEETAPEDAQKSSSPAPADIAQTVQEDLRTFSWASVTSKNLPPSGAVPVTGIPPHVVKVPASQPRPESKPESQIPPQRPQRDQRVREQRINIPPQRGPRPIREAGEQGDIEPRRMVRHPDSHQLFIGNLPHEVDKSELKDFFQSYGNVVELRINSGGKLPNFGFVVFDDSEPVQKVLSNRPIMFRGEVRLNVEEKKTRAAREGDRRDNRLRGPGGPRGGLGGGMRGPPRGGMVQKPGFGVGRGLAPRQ
# All sequences stand within: GGGAGUUCUACAGUCCGACGAUC … UGGAAUUCUCGGGUGUCAAGG
Oligonucleotide,log2 enrichment
AAGUCCUGUGCUACACAUCGUAUGUACCGAAUCGGUUUUUGGAAAAAAAGGAAAGGAAAGUAUUAUGUUACGCCGUUCGGAUCUGCACUU,-0.288
AAGUCCUGUGCUACACAUCGUAUGUACCGAAUCGGGGUUUUGGUUUUGGGUUUUGGGAAAGUAUUAUGUUACGCCGUUCGGAUCUGCACU,-0.222
CACAGACAACACGCACCCACACAGACACAGAGGGAAGGGGUUGGGAUGGGGACAGGGUACACAGCAGGGCGGGGUAGGACCCCAGCCCCU,0.126
CAAGUCCUGUGCUACACAUCGUAUGUACCGAAUCGGGGAGGGGUGGGGUUUGGGGAAAGUAUUAUGUUACGCCGUUCGGAUCUGCACUUC,0.996
GUCCUGUGCUACACAUCGUAUGUACCGAAUCGUGUGUGUGUGUGUGUGUGUGUGUGUGAAAGUAUUAUGUUACGCCGUUCGGAUCUGCAC,0.0963
UGGGAGGUGGAUUUUGUUUAUUUUUGUAGCUCAUUUCCAGGGGUGGGAAUUUUUUUUUAAUAUGUGUCAUGAAUAAAGUUGUUUUUGAAA,1.92
AAGUCCUGUGCUACACAUCGUAUGUACCGAAUCGGAAAAGGAAAAGGGGAAAAGGGAAAGUAUUAUGUUACGCCGUUCGGAUCUGCACUU,-0.221
AGUCCUGUGCUACACAUCGUAUGUACCGAAUCGGGUUUUUGGUUUUUGGGGUUUUUGGAAAGUAUUAUGUUACGCCGUUCGGAUCUGCAC,-0.106
UCAAGUCCUGUGCUACACAUCGUAUGUACCGAAUCGGUUUGGAAAGGAAAAAGGAAAGUAUUAUGUUACGCCGUUCGGAUCUGCACUUCC,-0.101
GCAGGAAGUAAAAACAAAUGGAAAUGCUUCGGAUAGUGGCAGGGGUGGGGGUUGCUAAGGAAAGGGUGGGAUGGGAGUGGGUGAAGAGUU,0.726
UGCAGUGAUGGUCAUUGUCCUCCAGAGCAGUGAUGGAGGAAAUACCAGCCCAGGAAGCAGCAGGGUCACCAAGGGUCCAGUUUCAGUCUU,-0.109
UUGAAAGAAUUUGCCAACUUUGACUUUGAUGUCUGGAGGAAAAAGUAUAUGCGUUGGAUGAAUCACAAAAAGUCUCGAGUGAUGGAUUUC,-0.212
CUCAAGUCCUGUGCUACACAUCGUAUGUACCGAAUCGGGAAAGGGAGGGAGGGAAAGUAUUAUGUUACGCCGUUCGGAUCUGCACUUCCA,0.814
GUCCUGUGCUACACAUCGUAUGUACCGAAUCGGGUUUUUGGGGUUUUUGGGGUUUUUGGAAAGUAUUAUGUUACGCCGUUCGGAUCUGCA,-0.214

# Other studies, line by line
Substance,target,assay,system,setting,scale,measurement,value
"PhoQ, residues 284 288 289 292 302 303 SLGVVW","PhoP, residues 12 14 15 18 19 NYFTV (Escherichia coli, UniProt P23836)","Sort-seq, measured: YFP reporter",E. coli,"PhoQ-PhoP variant library, with: 10 µM Mg2+","reference: high Mg2+ state, higher = stronger signaling",fold induction,15.9

# Repeated from above (sample 3):
Oligonucleotide,log2 enrichment
CACAGACAACACGCACCCACACAGACACAGAGGGAAGGGGUUGGGAUGGGGACAGGGUACACAGCAGGGCGGGGUAGGACCCCAGCCCCU,0.126
CAAGUCCUGUGCUACACAUCGUAUGUACCGAAUCGGGGAGGGGUGGGGUUUGGGGAAAGUAUUAUGUUACGCCGUUCGGAUCUGCACUUC,0.996
GUCCUGUGCUACACAUCGUAUGUACCGAAUCGUGUGUGUGUGUGUGUGUGUGUGUGUGAAAGUAUUAUGUUACGCCGUUCGGAUCUGCAC,0.0963
